Published values collected from several papers.
Protocols differ between the studies behind these lines.

The MIC of `O=C(Nc1ncc(Cc2ccccc2)s1)c1ccccc1` is reported as > 20 µM (Histoplasma capsulatum; microbial growth).
`CNC(=O)[C@@H](NC(=O)[C@H](CC(C)C)[C@H](O)C(=O)NO)C(C)(C)C` has a remaining activity of 100% (Daboia russelii venom proteases (SVMP); protease activity, inhibitor; RJ population; 0.01 µM, together with: azocasein substrate; baseline: venom alone).
`Cc1ccccc1Nc1nc(-c2ccccn2)cs1` gave an MIC of 3.1 to 6.3 µM (Mycobacterium tuberculosis; microbial growth, broth dilution; H37RV).
`O=C(CCC1CCCCC1)Nc1nnc(Cc2ccccc2)s1` gave an MIC of > 20 µM (Histoplasma capsulatum; microbial growth).
`O=C(Nc1nc(-c2ccccn2)cs1)c1ccc(Cl)cc1` gave an MIC of 0.39 to 0.78 µM (Mycobacterium tuberculosis; microbial growth, broth dilution; H37RV).
`Cn1cnc(Cn2c(=O)[nH]/c(=N\c3cc4cn(C)nc4cc3Cl)n(Cc3cc(F)c(F)cc3F)c2=O)n1`: “patients with adverse event” 0% (human, mild renal impairment; oral, 375 mg, hypertriglyceridaemia TEAE, Mild severity).
The MIC of `CC(=O)c1cccc(C(=O)Nc2nc(-c3ccccn3)cs2)c1` is reported as 0.098 to 0.19 µM (Mycobacterium tuberculosis; microbial growth, broth dilution; H37RV).
`O=C(Nc1ncc(CC2CCCCC2)s1)C1CCCCC1` gave an MIC of 2.5 to 5 µM (Histoplasma capsulatum; microbial growth).
For `CCCCCC/C=C\CCCCCCCCCC(=O)CP(=O)(O)O`, the MIC was 0.05 µg/mL (Bacillus anthracis; microbial growth; STERNE34F2).
The efficacy of `CCCCN(CCCNC(=O)c1cc(Nc2cccc(SC)c2)nc2ccccc12)Cc1ccccc1` is reported as 37.9% (SARS-CoV-2; cytopathic effect; USA_WA1/2020; round 2, 5-point).
`Nc1ncnc2c([C@@H]3N[C@H](CO)[C@@H](O)[C@H]3O)c[nH]c12` has an inhibition of 33.8% (Marburg virus; viral replication; HeLa, Angola; 0.8 µM).
With `CCCCCCCC(=O)CP(=O)(O)O` the MIC was > 200 µg/mL (Bacillus anthracis; microbial growth; STERNE34F2).
`Cc1cccc(Nc2nc(-c3ccccn3)cs2)c1` gave an MIC of 6.3 to 12.5 µM (Mycobacterium tuberculosis; microbial growth, broth dilution; H37RV).
With `CN(C)[C@@H]1C(O)=C(C(N)=O)C(=O)[C@@]2(O)C(O)=C3C(=O)c4c(O)cccc4[C@@](C)(O)[C@H]3C[C@@H]12` the MIC was 8 µg/mL (Xanthomonas oryzae).
The MIC of `O=C(O)c1cn(C2CC2)c2cc(N3CCNCC3)c(F)cc2c1=O` is reported as 0.25 µM (Yersinia pseudotuberculosis; ATCC 6904).
For `Cc1ccc(Nc2nc(-c3ccccn3)cs2)cc1`, the MIC was 6.3 to 12.5 µM (Mycobacterium tuberculosis; microbial growth, broth dilution; H37RV).
The MIC of `CCCCCCCCCCCCCCCC(=O)C(F)(F)P(=O)(O)O` is reported as 200 µg/mL (Bacillus anthracis; microbial growth; STERNE34F2).
`COc1ccccc1-c1cccc(CN2CCCC(C(=O)NCc3ccc(F)cc3)C2)c1` (stereo not shown) gave an AC50 of 14.1 µM (SARS-CoV-2; cytopathic effect, cell-based CPE; USA_WA1/2020).
`O=C(Nc1nc(-c2ccccn2)cs1)C1CCCCC1` has an MIC of 1.6 to 3.1 µM (Mycobacterium tuberculosis; microbial growth, broth dilution; H37RV).
The MIC of `Oc1c(Cl)cc(Cl)cc1-c1[nH]c(Cl)c(Cl)c1Cl` is reported as 16 µM (Yersinia pseudotuberculosis; ATCC 6904).
For `O=C(Nc1ncc(Cc2ccccc2)s1)C1CCSCC1`, the MIC was 10 to 20 µM (Histoplasma capsulatum; microbial growth).
The MIC of `O=C(CCCCc1ccccc1)CP(=O)(O)O` is reported as > 200 µg/mL (Bacillus anthracis; microbial growth; STERNE34F2).
For `O=C(Nc1cc(-c2ccccn2)cs1)c1ccccc1`, the MIC was 12.5 to 25 µM (Mycobacterium tuberculosis; microbial growth, broth dilution; H37RV).
For `Cc1ncc([N+](=O)[O-])n1CCO`, the MIC was 0.5 to 2 µg/mL (Clostridium perfringens).
With `O=C(Nc1ncc(Cc2ccccc2)s1)C(F)(F)F` the MIC was > 20 µM (Histoplasma capsulatum; microbial growth).
The MIC of `O=C(CCCCCCCCCCOc1ccccc1)NP(=O)(O)O` is reported as > 200 µg/mL (Bacillus anthracis; microbial growth; STERNE34F2).
`CC[C@H](C)[C@H](NC(=O)[C@H](CC(C)C)NC(=O)[C@H](Cc1c[nH]c2ccccc12)NC(=O)[C@H](CCC(N)=O)NC(=O)[C@@H](NC(=O)[C@H](Cc1ccccc1)NC(=O)[C@H](C)NC(=O)[C@H](CCCCNC(=O)COCCOCCNC(=O)COCCOCCNC(=O)CC[C@H](NC(=O)CCCCCCCCCCCCCCCCCCC(=O)O)C(=O)O)NC(=O)[C@H](CCC(N)=O)NC(=O)[C@H](C)NC(=O)[C@@H](NC(=O)[C@H](CCCCN)NC(=O)[C@H](CC(=O)O)NC(=O)[C@H](CC(C)C)NC(=O)C(C)(C)NC(=O)[C@@H](NC(=O)[C@H](CO)NC(=O)[C@H](Cc1ccc(O)cc1)NC(=O)[C@H](CC(=O)O)NC(=O)[C@H](CO)NC(=O)[C@@H](NC(=O)[C@H](Cc1ccccc1)NC(=O)[C@@H](NC(=O)CNC(=O)[C@H](CCC(=O)O)NC(=O)C(C)(C)NC(=O)[C@@H](N)Cc1ccc(O)cc1)[C@@H](C)O)[C@@H](C)O)[C@@H](C)CC)[C@@H](C)CC)C(C)C)C(=O)N[C@@H](C)C(=O)NCC(=O)NCC(=O)N1CCC[C@H]1C(=O)N[C@@H](CO)C(=O)N[C@@H](CO)C(=O)NCC(=O)N[C@@H](C)C(=O)N1CCC[C@H]1C(=O)N1CCC[C@H]1C(=O)N1CCC[C@H]1C(=O)N[C@@H](CO)C(N)=O`: “subjects with adverse event” 16.7% (refers to: treatment-emergent application site reaction; healthy subjects; 0.5 mg, multiple ascending dose).
With `O=C(CCC1CCCCC1)Nc1ncc(CCc2ccccc2)s1` the MIC was 2.5 µM (Histoplasma capsulatum; microbial growth).

Some of these lines once more:
For `O=C(Nc1cc(-c2ccccn2)cs1)c1ccccc1`, the MIC was 12.5 to 25 µM (Mycobacterium tuberculosis; microbial growth, broth dilution; H37RV).
For `Cc1ncc([N+](=O)[O-])n1CCO`, the MIC was 0.5 to 2 µg/mL (Clostridium perfringens).
